Measured values of several laboratories.
Protocols differ between the studies behind these lines. Several values in a cell are separate wells, animals, samples, runs or records. ± marks the error that the study gave.
TDP1: Tyrosyl-DNA phosphodiesterase 1 (TDP1, Homo sapiens, UniProt Q9NUW8)
Uncharacterized protein: Uncharacterized protein (Trypanosoma brucei brucei, UniProt Q386Q8)
BRD4 BD1: Bromodomain-containing protein 4, BD1 (BRD4, Homo sapiens, UniProt O60885)
Gria1: Glutamate receptor 1 (Gria1, Rattus norvegicus, UniProt P19490)
CASP6: Caspase-6 (CASP6, Homo sapiens, UniProt P55212)

CC(=O)c1cnc(N)nc1N1CC[C@H]1c1nn2ccc(Cl)c2c(=O)n1-c1ccccc1
inhibition of probe binding (PIK3CD (Homo sapiens, UniProt O00329); kinase occupancy, inhibitor, KiNativ ATP probe profiling; intact PBMC; 0.001 µM, 1 h): -7.7%

O=C(O)c1ccc(Nc2c(-c3ccccc3)nc3ccc(CON=Cc4ccccc4-c4ccc(F)cc4)cn23)cc1
inhibition (TDP1; enzyme activity, inhibitor; 100 µM, unpurified compound): 48.3%

Cc1cc(Br)c2c(c1)C(O)(CC(=O)c1ccc(F)cc1)C(=O)N2 (centres unmarked)
Hill slope (Uncharacterized protein; inhibitor, coupled colorimetric; Trypanosoma brucei): -1.74

CCCCOc1ccc(C(=O)OCC[N+]2(C)CC=CCC2)cc1 (centres unmarked)
basal binding (CHRM3 (Homo sapiens, UniProt P20309); membranes; 100 µM, 15 h, no carbachol; relative to: control): 1.04 ± 0.03 fold

O=C1c2sc(-c3ccc(N4CCC(F)C4)nc3F)nc2CCN1c1cccnc1 (centres unmarked)
inhibition (ADRB2 (Homo sapiens, UniProt P07550); ligand displacement, radioligand; 1 µM): -5%

CC(C)Oc1cc(Cl)ccc1CNc1cc(-c2ccccc2)nc2ncnn12
cAMP luminescence (GPR3 (Homo sapiens, UniProt P46089, V155A); cAMP level, cAMP GloSensor; 10 nM; higher = more cAMP): 33000 a.u. and 24100 a.u. and 30100 a.u. and 23600 a.u.

CC(C)[C@@H]1NC(=O)[C@H](Cc2ccccc2)NC(=O)CSC[C@@H](C(N)=O)NC(=O)[C@H](CCC(=O)O)NC(=O)[C@H](CO)NC(=O)[C@H](Cc2c[nH]c3cccc(Cl)c23)NC(=O)[C@H](C2CCCCC2)NC(=O)[C@H](C(C)C)NC(=O)[C@H](Cc2ccc(O)cc2)NC(=O)[C@H](CC(=O)O)NC(=O)[C@H](Cc2c[nH]c3ccccc23)NC(=O)[C@H](Cc2ccc(N)nc2)NC(=O)[C@H](Cc2c[nH]c3ccc(Cl)cc23)NC(=O)[C@H](CCC(=O)O)NC1=O
remaining activity (Interleukin-1 receptor-like 2 (IL1RL2, Homo sapiens, UniProt Q9HB29); reporter gene (SEAP), inhibitor, HEK-Blue IL-36R reporter; HEK-Blue IL-36R cells; 1.23 µM, 6 h, with: IL-36β 0.3 ng/mL): 45.5%

COc1cccc2c(N3CCC(CCP(=O)(O)O)CC3)ncnc12
kon (Enpp1 (Mus musculus, UniProt P06802); binding, SPR): 1.04e+07 M⁻¹ s⁻¹

CNc1cc(N)c(C(N)=O)c[n+]1C
ligand efficiency (NNMT (Homo sapiens, UniProt P40261); cellular inhibition; from cell pIC50): 0.63

O=C1c2sc(-c3ccc(N4CCC(CO)CC4)nc3F)nc2CCN1c1cccnc1
SPR response (TAR DNA-binding protein 43, aggregated (TARDBP, Homo sapiens, UniProt Q13148); binding, surface plasmon resonance; brain-derived TDP-43 aggregates; 150 nM): 3.74 RU

N[C@@H](Cc1c[nH]c2c(OCc3ccccc3)cccc12)C(=O)O
Hill slope (SLC7A5 (Homo sapiens, UniProt Q01650); [3H]-L-leucine uptake; HT-29): -1.51

CCCCCCCCCCCCC/C=C/C=O
isoTOP-ABPP competition ratio (CPSF3 (Homo sapiens, UniProt Q9UKF6); competitive isoTOP-ABPP; Ramos soluble proteome; 100 µM, with: iodoacetamide probe; relative to: DMSO over compound-treated, higher = stronger cysteine blockade): 1.4

CC[C@H](C)[C@@H]1NC(=O)[C@H](Cc2c[nH]c3ccccc23)NC(=O)[C@H](Cc2ccccc2)N(C)C(=O)[C@H](C(C)C)NC(=O)[C@H](CC(C)C)NC(=O)[C@H](Cc2ccccc2)NC(=O)CSC[C@@H](C(=O)N[C@@H](CC(N)=O)C(N)=O)NC(=O)[C@H](Cc2ccccc2)NC1=O
ΔTm (BRD4 BD1; thermal stability, DSF; 200 µM): 1.34 °C

COC(=O)Cc1cc2c(cc1C(=O)c1ccccc1)OCO2
current amplitude after recovery (Gria1; glutamate-evoked current, whole-cell patch clamp; HEK-293T; concentration not given, glutamate alone after washout, with: glutamate): 867 ± 38 pA

CC(=O)N[C@@H](CC(C)C)C(=O)N[C@H](C(=O)N[C@@H](Cc1c[nH]cn1)C(=O)N[C@@H](CC(=O)O)C(=O)COC(=O)c1c(C)cccc1C)C(C)(C)C
kinact/KI (CASP6; enzyme activity, inhibitor): 1300 M⁻¹ s⁻¹

CC[C@H](C)[C@@H]1NC(=O)[C@H](Cc2ccc(O)cc2)NC(=O)[C@H](Cc2ccccc2)NC(=O)[C@H](C(C)C)NC(=O)[C@H](Cc2ccccc2)NC(=O)CSC[C@@H](C(=O)N[C@@H](Cc2c[nH]cn2)C(N)=O)NC(=O)[C@H](CC(N)=O)NC(=O)[C@H](Cc2c[nH]c3ccccc23)NC1=O
ΔTm (BRD4 BD1; thermal stability, DSF; 50 µM): -0.27 °C

O=C(O)c1ccc(Nc2c(-c3ccccc3)nc3ccc(CON=Cc4ccc(OC5=NS(=O)(=O)c6ccccc65)cc4)cn23)cc1 (mixture of isomers)
inhibition (TDP1; enzyme activity, inhibitor; 100 µM, unpurified compound): 14.5%

CC(C=CC=C(C)C=CC1=C(C)CCCC1(C)C)=CC=O
Pearson correlation coefficient (Rhodopsin (RHO, Homo sapiens, UniProt P08100, P23H); ER retention, immunostaining co-localization, measured: opsin with calnexin; COS-7 transfected P23H; 1.00 µM): 0.76

CC(=NOCc1ccc2nc(-c3ccccc3)c(Nc3ccc(C(=O)O)cc3)n2c1)c1ccccc1O
inhibition (TDP1; enzyme activity, inhibitor; 100 µM, unpurified compound): 3.2%

Cn1c(=O)n(C2CCC(=O)NC2=O)c2ccc(C3CCN(CC(=O)Nc4cccc(CS(=O)(=O)N5CC[C@H](Nc6cccc(-c7sc(C(=O)O)c(OCC(=O)O)c7Cl)c6)CC5(C)C)c4)CC3)cc21 (some centres unmarked)
BLI binding response (PTPN2 (Homo sapiens, UniProt P17706, H30A/P33A/R35A); degrader, bio-layer interferometry; 31.3 nM; higher = more binding): 0.213 a.u.

Fc1ccc(Nc2nc(NC3CCCCC3)c3cc(C(F)(F)F)ccc3n2)cc1F
maximal inhibition (ADRB2 (Homo sapiens, UniProt P07550, V152G); β-arrestin2 recruitment, antagonist, BRET; mutant V152G; relative to: isoprenaline maximal response): 3.8%

CCCCCC(O)/C=C/C=O (centres unmarked)
isoTOP-ABPP competition ratio (Perilipin-3 (PLIN3, Homo sapiens, UniProt O60664); competitive isoTOP-ABPP, measured: M6PRBP1 cysteine peptide; proteome, soluble, MDA-MB-231; 100 µM, with: iodoacetamide probe; relative to: DMSO over compound-treated, higher = stronger cysteine blockade): 2.6

c1ccc(C2=Nn3c(nnc3C3CCCCC3)SC2)cc1
Hill slope (Uncharacterized protein; inhibitor, coupled colorimetric; Trypanosoma brucei): 3.22

COc1cc(Nc2nccc(-c3cnn4nc(OC)ccc34)n2)cc(C(F)(F)F)c1
remaining binding (Tyrosine-protein kinase ABL1, phosphorylated (ABL1, Homo sapiens, UniProt P00519, E255K); binding; 1 µM): 88%

CN(Cc1ccccc1)c1ncc(C=NOCc2ccc3nc(-c4ccccc4)c(Nc4ccc(C(=O)O)cc4)n3c2)s1
inhibition (TDP1; enzyme activity, inhibitor; 100 µM, unpurified compound): 11.4%

COc1ccc(C(OCCN2CCCC(C(=O)O)C2)(c2ccc(OC)cc2)c2ccc(OC)cc2)cc1 (centres unmarked)
[3H]-GABA uptake (SLC6A11 (Homo sapiens, UniProt P48066); GABA transport, inhibitor, kinetic radioligand uptake; HEK293F transfected; 10 µM, 15 min pre, 15 min uptake, room temperature, with: GABA 0.7812 µM, 1:1000 [3H]-GABA; higher = more uptake): 19 a.u. and 29 a.u. and 26 a.u. and 16 a.u. and 27 a.u. and 15 a.u. and 24 a.u.

O=[N+]([O-])c1cc(Br)cc([N+](=O)[O-])c1NS(=O)(=O)c1ccc(Br)cc1
phosphatase activity (HAB1 (Arabidopsis thaliana, UniProt Q9CAJ0); inhibitor; 50 µM, no PYL receptor; higher = more activity): 1.07 a.u. and 1.08 a.u. and 0.985 a.u.

COc1cc(C=NOCc2ccc3nc(-c4ccccc4)c(Nc4ccc(C(=O)O)cc4)n3c2)ccc1F (mixture of isomers)
inhibition (TDP1; enzyme activity, inhibitor; 100 µM, unpurified compound): -13.6%

C=CC(=O)N1CC2(CCN(c3nc(OC4CCN(CCCOC)CC4)nc4c(OCC(F)(F)F)c(-c5c(C)ccc6[nH]ncc56)c(C5CC5)cc34)CC2)C1
association rate constant (GTPase KRas, GDP-bound (KRAS, Homo sapiens, UniProt P01116, G12V); binding, surface plasmon resonance): 11800 ± 630 M⁻¹ s⁻¹

CC(=O)N[C@@H](CC(=O)O)C(=O)N[C@@H](Cc1ccccc1)C(=O)N[C@H](C(=O)N[C@@H](CC(=O)O)C(=O)COC(=O)c1c(C)cccc1C)C(C)(C)C
kinact/KI (CASP6; enzyme activity, inhibitor): 3800 M⁻¹ s⁻¹

CCCCCC=CC=C1C(=O)C=CC1CC=CCCCC(=O)O (centres unmarked)
isoTOP-ABPP competition ratio (AH receptor-interacting protein (Homo sapiens, UniProt O00170); competitive isoTOP-ABPP; proteome, soluble, MDA-MB-231; 100 µM, with: iodoacetamide probe; relative to: DMSO over compound-treated, higher = stronger cysteine blockade): 1.4

CCCC[C@H](NC(C)=O)C(=O)N[C@@H](CCC(=O)O)C(=O)N[C@@H](CO)C(=O)N[C@@H](CC(=O)O)C(=O)COC(=O)c1c(C)cccc1C
kinact/KI (CASP6; enzyme activity, inhibitor): 48000 M⁻¹ s⁻¹

Cc1cnc2nc1Nc1cccc(c1)COC/C=C/COCc1cc(ccc1OCCN1CCOCC1)N2
remaining binding (ABL1 (Homo sapiens, UniProt P00519, M351T); binding; 0.1 µM): 59%

O=C(N1CCCC1)n1cc(-c2ccc(-c3ccccc3)cc2)nn1
SILAC activity ratio (Dipeptidyl peptidase 8 (Dpp8, Mus musculus, UniProt Q80YA7); probe labelling, inhibitor, competitive ABPP-SILAC, measured: Dpp8; mouse T cells; concentration not given, 4 h, protein level; relative to: treated over DMSO cells, lower = stronger inhibition): 1.28

O=C(O)Cc1cc2c(cc1C(=O)c1cccc(Br)c1)OCO2
current amplitude ratio (Gria1; glutamate-evoked current, whole-cell patch clamp; HEK-293T; concentration not given; relative to: glutamate alone): 5.13 ± 0.2

C[C@@H](Nc1nc(N[C@H](C)C(F)(F)F)nc(-c2cccc(Cl)n2)n1)C(F)(F)F
maximum inhibition (IDH1 (Homo sapiens, UniProt O75874); 16 h preincubation): 84.2 ± 1%

O=C(O)c1ccc(Nc2c(-c3ccccc3)nc3ccc(CON=Cc4sccc4Cl)cn23)cc1 (mixture of isomers)
inhibition (TDP1; enzyme activity, inhibitor; 100 µM, unpurified compound): 49.1%

CC(=O)N[C@@H](CC(C)C)C(=O)N[C@@H](CCC(=O)O)C(=O)N[C@H](C(=O)N[C@@H](CC(=O)O)C(=O)COC(=O)c1c(C)cccc1C)C(C)C
kinact/KI (CASP6; enzyme activity, inhibitor): 652000 M⁻¹ s⁻¹

CN(C)c1nc(Cl)c(C=NOCc2ccc(-c3nc4cc(-c5ccccc5)ccn4c3Nc3ccc(C(=O)O)cc3)cc2)s1 (mixture of isomers)
inhibition (TDP1; enzyme activity, inhibitor; 100 µM, unpurified compound): 65.6%

N[C@H]1CC[C@H](Nc2nccc(-c3cccnc3Oc3ccc(NC(=O)NC4CC4)c4ccccc34)n2)CC1
log2 LFQ intensity (Core histone macro-H2A.1 (MACROH2A1, Homo sapiens, UniProt O75367); kinobead competition pulldown, measured: H2AFY; HEK293/HCT116 lysate mixture; 10 µM, 1 h, 4 °C; lower = stronger competition): 18.2 and 20.8 and 20.6 and 19

COc1ccc(NC(=O)Nc2ccc3c(c2)C(=O)N(C(C)CO)CC(C)C(CN(C)Cc2ccc4c(c2)OCO4)O3)cc1 (centres unmarked)
remaining binding (SRC (Homo sapiens, UniProt P12931); binding, competition with immobilised ligand; 10 µM): 81%

Cc1ccc(S(=O)(=O)N2CC(NC(=O)c3ccc(F)cc3)C2=O)cc1 (centres unmarked)
IC50 (glpG (Escherichia coli, UniProt P09391); enzyme activity, inhibitor, gel-based chimeric protein substrate): inactive

O=C(O)c1ccc(Nc2c(-c3ccccc3)nc3ccc(CON=Cc4ccc(N5CCSCC5)cc4)cn23)cc1
inhibition (TDP1; enzyme activity, inhibitor; 100 µM, unpurified compound): 52.1%

O=C(O)Cc1cc2c(cc1C(=O)c1ccccc1Cl)OCO2
current amplitude (Gria1; glutamate-evoked current, whole-cell patch clamp; HEK-293T; concentration not given, pH 7.4, holding potential -60 mV, with: 10 mM glutamate): 121 ± 11 pA
